Assay results pooled from the literature.
Compare with care: the assays were run in different laboratories. ± gives the spread as reported.
Target: Metallo-beta-lactamase VIM-2 (VIM-2, Escherichia coli, UniProt Q5U7L7)
Mode: inhibitor

SMILES = O=C(O)CN(CC(=O)O)CP(=O)(O)O; observed = enzyme activity; method = fluorescence; endpoint = IC50; result = 0.68 µM
SMILES = O=C(O)c1cccc(CP(=O)(O)O)n1; observed = enzyme activity; endpoint = Ki; result = 0.54 µM
SMILES = NC(CNC(CNC(CC(=O)O)C(=O)O)C(=O)O)C(=O)O (stereo not shown); endpoint = Ki; result = 0.007 µM
SMILES = O=C(O)CNCC(=O)O; observed = enzyme activity; method = fluorescence; endpoint = IC50; result = > 200 µM
SMILES = C[C@H](CS)C(=O)Nc1ccccc1-c1nnn(C)n1; observed = enzyme activity; method = fluorescence; notes = with preincubation; endpoint = IC50; result = 1.82 µM
SMILES = O=C(O)C(c1ccccc1)n1cnnn1 (stereo not shown); observed = enzyme activity; method = fluorescence; notes = with preincubation; endpoint = IC50; result = 962 µM
SMILES = C[C@H](CS)C(=O)Nc1ccccc1-c1nn[nH]n1; observed = enzyme activity; method = fluorescence; notes = with preincubation; endpoint = IC50; result = 0.0355 µM
SMILES = CC(C)C1=CCC(C(=O)O)C(C(=O)O)C1 (stereo not shown); observed = enzyme activity; method = fluorescence; notes = with preincubation; endpoint = IC50; result = 402 µM
SMILES = CC(C)Cn1nnc(-c2ccccc2NC(=O)[C@H](C)CS)n1; observed = enzyme activity; method = fluorescence; notes = with preincubation; endpoint = IC50; result = 1.7 µM
SMILES = CN(C)c1ccc2c(c1)C(=O)N(C(CS)C(N)=O)C2=O (stereo not shown); observed = enzyme activity; notes = Km 8 µM; together with = chromacef 25 µM; endpoint = Ki; result = 0.41 ± 0.05 µM

Repeated from above:
SMILES = O=C(O)CNCC(=O)O; observed = enzyme activity; method = fluorescence; endpoint = IC50; result = > 200 µM
SMILES = O=C(O)CN(CC(=O)O)CP(=O)(O)O; observed = enzyme activity; method = fluorescence; endpoint = IC50; result = 0.68 µM
